Results collected from several papers.
Lines come from different studies, so protocols differ. Values joined by “and” are separate records of one study, mostly repeats; a detail may differ. ± marks the error that the study gave.

| Structure (SMILES) | cell line | assay | setting | how to read | endpoint | result |
| --- | --- | --- | --- | --- | --- | --- |
| CCOC(=O)C1(c2ccccc2)CCN(CCC(C#N)(c2ccccc2)c2ccccc2)CC1 | primary rat hippocampal/cortical neuron-glia cultures | – | 1 µM, added: 1 µM α-synuclein oligomers | – | reversal of trafficking deficit | 21.1% |
| COc1ccc(-n2nc(C(C)=O)s/c2=N\N=C(/C)c2ccc(NC(C)=O)cc2)cc1 | MCF7 | – | 2.5 µM | – | toxicity | 93% and 65.4% |
| CCN(c1nc(N)c(C(=O)NC(=N)N)nc1Cl)C(C)C | del45 myoblasts | fluorescence, refers to: fluorescent dextran | 2 h | – | dextran uptake | 81.7% and 52.7% and 79.5% |
| O=C1NC(=O)C(C2C3=C(CCCC3=O)Oc3ccc([N+](=O)[O-])cc32)C(=O)N1 (stereo not drawn) | 3T3-L1 adipocytes | qPCR, refers to: adiponectin | IC20, 14 days | baseline: untreated mature adipocytes | mRNA level | increased |
| C=C1C[C@@H]2[C@H](CC[C@]3(C)C(=O)CC[C@@H]23)[C@@]2(C)C=CC(=O)C=C12 | primary rat hippocampal/cortical neuron-glia cultures | – | 1 µM, added: 1 µM α-synuclein oligomers | – | reversal of trafficking deficit | 15% |
| CN1CC[C@]23c4c5ccc(O)c4O[C@H]2[C@@H](O)C=C[C@H]3[C@H]1C5 | CHO cells expressing human MOR, membranes | G-protein activation, agonist | – | – | EC50 | 96 nM and 93.6 nM |
| CCCCCc1cc(O)c2c(c1)OC(C)(C)[C@@H]1CCC(C)=C[C@@H]21 | human sperm | modified Kremer test | 10 µM, 1% methylcellulose, 1 cm | baseline: vehicle | sperm penetration | 0.38 ± 0.33 fold |
| C=C(C)CN1CC[C@]23c4c5ccc(O)c4O[C@H]2c2[nH]c4ccccc4c2C[C@@]3(O)C1C5 | primary rat hippocampal/cortical neuron-glia cultures | – | 1 µM, added: 1 µM α-synuclein oligomers | – | reversal of trafficking deficit | 78.6% |
| CN1C(=O)C(C2C3=C(CC(C)(C)CC3=O)Oc3c(O)cccc32)C(=O)N(C)C1=O (stereo not drawn) | 3T3-L1 adipocytes | qPCR, refers to: IRS-1 | IC20, 14 days | baseline: untreated mature adipocytes | mRNA level | increased |

Repeated from above:
| Structure (SMILES) | cell line | assay | setting | how to read | endpoint | result |
| --- | --- | --- | --- | --- | --- | --- |
| CN1CC[C@]23c4c5ccc(O)c4O[C@H]2[C@@H](O)C=C[C@H]3[C@H]1C5 | CHO cells expressing human MOR, membranes | G-protein activation, agonist | – | – | EC50 | 96 nM and 93.6 nM |
